Experimental data pooled from the literature.
Numbered parts are unrelated; each lists some results of a single study. Substitutions count along the parent as printed.

Set 1
Target: MAFF, bZIP domain (human)
Technique: DHFR protein complementation
Sample: yeast
Notes: single substitutions, most at no-binding floor
Reference: wild-type JUN-FOS pair
Reading: higher = stronger binding
Parent: JUN, bZIP domain (human); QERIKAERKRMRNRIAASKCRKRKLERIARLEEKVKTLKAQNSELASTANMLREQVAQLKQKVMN; partner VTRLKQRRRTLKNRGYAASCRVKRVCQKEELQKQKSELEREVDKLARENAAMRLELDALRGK
| Variant | binding fitness |
| --- | --- |
| A29L | -1.51 natural log |
| I28T | -1.45 natural log |
| T48F | -1.46 natural log |
| N42Q | -1.04 natural log |
| L31K | -1.48 natural log |
| I28K | -1.47 natural log |
| E33I | -1.46 natural log |
| A46C | -1.51 natural log |

Set 2
Target: Prothrombin, mature alpha-thrombin (F2, Homo sapiens, UniProt P00734)
Technique: aptamer microarray, sandwich
Molecule type: DNA with 2'F-ANA
Sample: in vitro
Tested at: 200 nM
Notes: whole 15-mer aptamer, many near background
Together with: Cy3 exosite-II aptamer, 400 nM
Reading: higher = stronger binding
Sequence: GGTTGGTGTGGTTGG
| Modification | mean fluorescence intensity [a.u.] |
| --- | --- |
| 2'F-ANA at 4 5 11 13 14 | 43.3 |
| 2'F-ANA at 1 6 8 11 12 | 317 |
| 2'F-ANA at 1 2 3 4 5 7 8 9 10 12 13 14 | 76.4 |
| 2'F-ANA at 1 3 4 7 10 11 13 14 15 | 55.5 |
| 2'F-ANA at 2 4 5 6 8 9 10 11 13 | 51.5 |
| 2'F-ANA at 2 3 4 5 8 9 10 13 14 15 | 93.5 |
| 2'F-ANA at 1 4 6 7 10 11 13 | 45.9 |
| 2'F-ANA at 2 6 8 10 11 12 13 | 119 |

Set 3
Target: PABPC1L2, full length, GST fusion (mouse, UniProt A0ABA7IW68)
Technique: RNAcompete
Molecule type: RNA
Sample: in vitro
Tested at: 20 nM
Notes: 7-mer, probes averaged, single round
Reference: mean of 7-mers
Reading: higher = stronger binding
Residues (chain): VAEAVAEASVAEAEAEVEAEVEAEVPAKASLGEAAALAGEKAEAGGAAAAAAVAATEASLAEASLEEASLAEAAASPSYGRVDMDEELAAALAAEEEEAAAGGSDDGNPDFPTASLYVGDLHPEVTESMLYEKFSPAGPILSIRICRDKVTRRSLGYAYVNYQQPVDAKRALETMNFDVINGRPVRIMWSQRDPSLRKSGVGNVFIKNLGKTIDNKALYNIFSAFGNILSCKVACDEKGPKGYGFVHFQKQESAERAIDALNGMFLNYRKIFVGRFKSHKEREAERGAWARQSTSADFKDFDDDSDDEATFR
| Sequence | 7-mer Z-score |
| --- | --- |
| AUUAAAA | 2.56 |
| CUGUACA | -0.0699 |
| UGGGGUU | -0.0645 |
| GUUUCUC | -0.405 |
| ACAGCAA | 0.0932 |
| GCUUCCU | -0.258 |
| CUGCUGC | -0.162 |
| AAUUACU | -0.0645 |

Further values, each from its own experiment
Parent: viral docking peptide; KGVKRKLFAEDSS; partner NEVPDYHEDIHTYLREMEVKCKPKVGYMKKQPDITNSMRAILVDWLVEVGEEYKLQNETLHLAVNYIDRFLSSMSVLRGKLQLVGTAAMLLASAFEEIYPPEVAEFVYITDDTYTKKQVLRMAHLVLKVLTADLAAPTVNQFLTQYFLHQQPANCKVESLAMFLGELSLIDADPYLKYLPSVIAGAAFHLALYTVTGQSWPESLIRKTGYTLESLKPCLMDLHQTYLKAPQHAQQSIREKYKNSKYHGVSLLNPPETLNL
| Variant | target | assay | test system | setting | how to read | quantity | result |
| --- | --- | --- | --- | --- | --- | --- | --- |
| KGWKRKLFAEDSS [V3W] | CCNA2, cyclin fold, Cln2 fusion (human) | yeast growth competition, sequencing | yeast | strong parent motif | reference: not given, higher = stronger binding | normalised enrichment score | 4.25 |

Repeated from above (set 3):
| Sequence | 7-mer Z-score |
| --- | --- |
| AUUAAAA | 2.56 |
| CUGUACA | -0.0699 |
| CUGCUGC | -0.162 |
